Measured values pooled from the literature.
Each numbered part is a random draw from the data of one study; scales do not carry over between parts. Changes are numbered by the printed parent chain.

Set 1
Target: Interferon regulatory factor 7, full length, phosphomimetic (IRF7, Homo sapiens, UniProt Q92985, residues 1-503, S101K/S471D/S472D/S475D/S476D/S477D/S483D/S484D/S487D)
Method: protein-binding microarray
Molecule type: double-stranded DNA, one strand shown
Sample: in vitro
Tested at: 250 nM
Setting: 60-bp whole probe
Added: salmon DNA 0.4 mg/ml
Reference: random background probes
Reading: higher = stronger binding
Quantity: log fluorescence
Constant ends, left off below: GCCTAGCAC … GTCTTGATTCGCTTGACGCTGCTG
Construct (chain): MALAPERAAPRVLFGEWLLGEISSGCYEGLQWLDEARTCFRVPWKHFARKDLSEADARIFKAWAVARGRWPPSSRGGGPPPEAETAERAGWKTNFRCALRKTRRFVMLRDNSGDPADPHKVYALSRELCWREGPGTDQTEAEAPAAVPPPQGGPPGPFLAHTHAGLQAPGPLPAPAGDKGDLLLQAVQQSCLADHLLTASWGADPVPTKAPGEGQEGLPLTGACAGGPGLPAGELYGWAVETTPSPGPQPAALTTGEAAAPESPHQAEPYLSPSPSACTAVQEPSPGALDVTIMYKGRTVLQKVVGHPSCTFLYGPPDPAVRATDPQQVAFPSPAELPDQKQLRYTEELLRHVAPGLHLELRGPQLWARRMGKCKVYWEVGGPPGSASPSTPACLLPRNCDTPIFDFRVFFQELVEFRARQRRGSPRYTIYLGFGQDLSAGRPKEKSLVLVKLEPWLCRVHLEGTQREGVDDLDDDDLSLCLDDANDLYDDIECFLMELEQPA
TTAGGTTGCGGTTCCGGTTAGTGCTAG: 2.35 z-score
TAAGGACTGGACTTTCGGTTAGTGCTA: 0.601 z-score
TTAGGTTTACTTTCCCTTTAGTGCTAG: 2.32 z-score
TTAGGTATCGGTTTCGGTTAGTGCTAG: 10.7 z-score
GCACTGTGCCTGCTGCCCTTGTGCTAG: -0.702 z-score
TTAGGTAACCTTTTCCTTTAGTGCTAG: 0.797 z-score
TTAGAACCGGGGTTTCGATTAGTGCTA: 6.44 z-score
TTAGGTATAGGACTGGGTTAGTGCTAG: 0.369 z-score
GACGGACTGGGTCTAGGGACGTGCTAG: -0.577 z-score
TTAGGTTCCCCTTTCCTTTAGTGCTAG: 2.69 z-score
TTAGGACTGGGGTTACGGTTAGTGCTA: -0.266 z-score
GACGATATCAGTATGGAGACGTGCTAG: -0.365 z-score
GACGGTATCGACTTTCTGGACGTGCTA: 0.716 z-score
TTATGTATCGACACTGGGTTAGTGCTA: -0.0714 z-score
TTAGGTATCGACACAGGGTTAGTGCTA: -0.0977 z-score
TTAGGAATGGGGACTGGGTTAGTGCTA: 0.213 z-score
TTAGGACTTGGGTTTCGGTTAGTGCTA: 5.61 z-score
CTAGGTTTCCTTTCCCTTTAGTGCTAG: 5.38 z-score
GACGTTCTCCTACTGCTGACGTGCTAG: 0.206 z-score
GTCGATATCGGGACTGGAGACGTGCTA: 0.04 z-score

Set 2
Target: RING finger protein unkempt homolog, zinc fingers 1-6, GST-SBP tag (UNK, Homo sapiens, UniProt Q9C0B0, residues 30-357)
Sequence of UniProt Q9C0B0 (30-357, looked up): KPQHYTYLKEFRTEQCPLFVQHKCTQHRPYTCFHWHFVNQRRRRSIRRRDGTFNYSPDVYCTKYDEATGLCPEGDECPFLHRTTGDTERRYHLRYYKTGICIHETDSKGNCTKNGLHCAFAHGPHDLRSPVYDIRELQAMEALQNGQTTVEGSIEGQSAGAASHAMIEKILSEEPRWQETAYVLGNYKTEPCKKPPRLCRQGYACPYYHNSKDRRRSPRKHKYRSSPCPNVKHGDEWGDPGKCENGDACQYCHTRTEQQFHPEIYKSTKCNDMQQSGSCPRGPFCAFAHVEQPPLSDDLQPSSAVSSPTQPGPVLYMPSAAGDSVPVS
Method: RNA Bind-n-Seq
Molecule type: RNA
Sample: in vitro
Tested at: not given
Setting: RNA with constant flanks, human and mouse sites, ends assumed
Reference: input RNA pool
Reading: higher = stronger binding
Quantity: bound/input enrichment
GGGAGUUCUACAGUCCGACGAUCAGCAGCAUCUCUAGGACACAAGGAACAGAAACCCAUUGUCAAGAGAGUUUUGUCUCGCCAGAACCUGGGAGCAGAGGACGGUCUGCUCCUGACCCCGACUUGGAAGAAUACAGCAAAGGACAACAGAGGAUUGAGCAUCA: 0.159 ratio
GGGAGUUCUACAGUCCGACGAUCAAAGCCAUCUUUUCCACAUUUUCUGUAAAUAAUGGAUAAUCAUUUUAAAAAUUUUUAUUUUUAGUGCUGUUUUAACAAUGUAGAUAGAUCAUAAAUGUACUUGCUGAAUUCAAUCAUUUUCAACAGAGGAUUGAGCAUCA: 9.13 ratio
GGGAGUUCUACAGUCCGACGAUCUUCUGGCACUGUGUUUAUUAUCUAUGAUUAAAUAAAGUGAGUUUUUGGUUUUGUUUUUUUAAUUUCAGCCAUUCCUAGAGUUACUGAAUAUCCAUGGAGAUCUCAAUUCUCUGUGUCCAACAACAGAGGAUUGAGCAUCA: 1.02 ratio
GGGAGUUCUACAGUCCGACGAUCGAUAAGAGCAUGCAGGACCGAUUGCGAUUAGGCCACUUUACUACUGUCCGGCAUGGAGCCUCGUUUACUGAGCAGUGGACAGAUGGUUAUGCUUUCCAAAACCUCAUCAAGCAACAGGAACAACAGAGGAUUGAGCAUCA: 0.458 ratio
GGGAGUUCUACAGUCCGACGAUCGCACCCAAACCCGACAGUUCUAUGUCUCCAUUCAGCCACCUGUCGGGGAGCUGAUGGCCCCUGUAUUUAUGAGUGAGAAUGAGUUCAAGAAGGAACAGGGAAAGCUGACAGGCAUGAAUGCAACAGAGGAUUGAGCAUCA: 0.171 ratio
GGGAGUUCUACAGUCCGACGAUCUGGUCUUCAGAGAGCAACUAUCCUCCCCAGUACUUGAUUCUAAAGCUCGAAAGGCCUGCUAUAGUUCAGAAUAUCACAUUUGGAAAAUAUGAGAAAACUCAUGUUUGCAAUUUGAAGAAACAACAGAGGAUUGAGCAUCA: 0.16 ratio
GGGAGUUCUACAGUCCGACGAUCAGAAAGUGAGCCUGUUGAUGUCUAGCUAACCCAUUGGUGGAGUCUGCAUUGAAUCUGUAAGAAUAUUGUUCUGGAUCAUGCAGGUGGGAUUUGUAUAAAAAGCCUGUCCAACAUUUAGUUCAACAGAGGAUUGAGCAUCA: 0.423 ratio
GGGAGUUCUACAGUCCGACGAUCAAGAUCUUUAAUGUUGCCAUUCCCCGAUUCCAUAUGGCAUGUCCAACAUUCAGGGUGUCUAUAGCCCGAUUGGAAAUGGGUCCUGAUGAAUAUGAAGAGAUGGAAGAAGAGGAGGAGGAGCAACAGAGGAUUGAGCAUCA: 0.195 ratio
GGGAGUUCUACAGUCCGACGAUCUCAGUGAAAUGCUUUCCUAAAAAGUGAAAGGCUAAAGAUGUCUAGACAAAAUUUAGUGGCUUUGACAGUGACCACCCUUCUGGGUGUGGCCAUGGGGGGAUUUGUCCUGUGGAAAGGCAUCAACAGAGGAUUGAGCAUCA: 0.387 ratio
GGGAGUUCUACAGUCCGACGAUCAGUUUAUCUGGAUGUUAUCAGAUCACAGACCAUGGUCUCAGGGUUUUGACUCUGGGAGGAGGGCUGCCUUAUUUGGAGCACCUUAAUCUCUCUGGUUGUCUUACUAUAACUGGUGCAGGCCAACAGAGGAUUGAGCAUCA: 0.12 ratio
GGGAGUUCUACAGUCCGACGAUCGGCUCUGUGAAGAAAGUCAACGAAUCCUCACUAAAUUGGCCCCAGUUGGAGAAUAUCGGCAACUUCAUUAAAGCUAUCCAGGCUUACGGUAUGAAGCCCCAUGAUAUAUUUGAAGCAAACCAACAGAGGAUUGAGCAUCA: 0.187 ratio

Set 3
Target: ABI1, truncated, D143A, DHFR fusion (Arabidopsis thaliana)
Method: DHFR PCA, deep sequencing
Sample: yeast
Setting: methotrexate growth selection, single substitutions
Added: (+)-ABA 0.39 µM
Reference: wild-type fitted maximum
Reading: higher = stronger binding
Quantity: relative binding score
Parent: PYL1, truncated, DHFR fusion (Arabidopsis thaliana); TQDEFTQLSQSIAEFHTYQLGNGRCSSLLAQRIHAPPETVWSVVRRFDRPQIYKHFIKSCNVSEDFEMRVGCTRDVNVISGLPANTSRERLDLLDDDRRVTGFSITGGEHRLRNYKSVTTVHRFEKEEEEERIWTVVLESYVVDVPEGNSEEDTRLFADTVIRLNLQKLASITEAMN; partner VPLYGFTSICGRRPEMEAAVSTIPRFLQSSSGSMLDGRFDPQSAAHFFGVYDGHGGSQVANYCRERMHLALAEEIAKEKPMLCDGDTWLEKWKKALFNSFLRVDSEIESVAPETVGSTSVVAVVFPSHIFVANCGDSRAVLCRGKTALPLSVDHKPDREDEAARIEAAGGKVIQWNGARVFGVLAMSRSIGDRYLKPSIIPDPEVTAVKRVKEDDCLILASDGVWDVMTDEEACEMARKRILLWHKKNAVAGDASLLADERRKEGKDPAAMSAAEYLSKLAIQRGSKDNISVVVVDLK
F5T: 17.9%
N114M: 3.3%
E152D: 37.4%
P146E: -2.58%
R45E: -16.9%
L82P: -0.607%
S150V: 5.26%
H110K: 20%
E89M: -4.51%
T120Y: -7.96%
D3S: 34.8%
R132C: 63.2%
E14L: 4.13%
R74W: -3.17%
D92K: -0.592%
V142D: 8.04%

Set 4
Target: CCNB3, cyclin fold, Cln2 fusion (human)
Method: yeast growth competition, sequencing
Sample: yeast
Setting: weak parent motif
Reference: not given
Reading: higher = stronger binding
Quantity: normalised enrichment score
Parent: CDC42EP1 docking peptide (human); SLVVGKLSFDSSP; partner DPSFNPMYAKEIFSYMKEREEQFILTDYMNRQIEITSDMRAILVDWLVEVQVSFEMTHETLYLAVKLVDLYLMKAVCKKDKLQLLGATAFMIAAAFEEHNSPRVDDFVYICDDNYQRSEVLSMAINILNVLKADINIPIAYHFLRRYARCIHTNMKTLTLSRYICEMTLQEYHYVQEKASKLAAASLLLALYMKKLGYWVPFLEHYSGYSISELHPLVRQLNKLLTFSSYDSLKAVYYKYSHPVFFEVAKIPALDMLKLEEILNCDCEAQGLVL
F9A: -0.147
D10A: 0.272
G5A: -0.0527
S12A: 0.449
S8A: -0.17
L2A: 0.141
V3A: -0.0838

Set 5
Target: ATF7, bZIP domain (human)
Method: DHFR protein complementation
Sample: yeast
Setting: single substitutions, most at no-binding floor
Reference: wild-type JUN-FOS pair
Reading: higher = stronger binding
Quantity: binding fitness
Parent: JUN, bZIP domain (human); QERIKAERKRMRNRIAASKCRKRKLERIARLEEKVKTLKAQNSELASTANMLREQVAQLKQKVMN; partner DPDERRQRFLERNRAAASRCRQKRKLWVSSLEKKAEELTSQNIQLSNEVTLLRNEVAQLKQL
E44A: -1.03 natural log
K39F: -1.33 natural log
A49L: -1.05 natural log
Q41S: -1.4 natural log
L38N: -1.39 natural log
K34A: -1.2 natural log
L45E: -1.47 natural log
L38A: -1.49 natural log
A40N: -1.09 natural log
E33L: -1.09 natural log
N42V: -1.41 natural log
A49K: -1.1 natural log
A57T: -1.05 natural log
E44F: -1.09 natural log
L52V: -1.35 natural log
E33F: -1.3 natural log
A46C: -1.09 natural log
S43R: -0.751 natural log
E32I: -0.961 natural log
R53W: -1.55 natural log
L45T: -1.47 natural log
Q58R: -1.11 natural log
A46E: -0.79 natural log
R30N: -0.911 natural log

Set 6
Target: Histone acetyltransferase KAT6A, winged helix 1, GST fusion (KAT6A, Homo sapiens, UniProt Q92794, residues 1-85)
Method: protein binding microarray
Molecule type: double-stranded DNA, one strand shown
Sample: in vitro
Tested at: not given
Setting: 8-mer, flanks averaged, mean of 2 arrays, mostly near background
Reference: not given
Reading: higher = stronger binding
Quantity: E-score
Residues (chain): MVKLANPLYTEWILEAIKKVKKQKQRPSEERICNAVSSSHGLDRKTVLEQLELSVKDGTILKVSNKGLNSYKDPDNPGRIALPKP
CGTCGAGC: 0.114
CTGGGGGA: -0.0998
AAGATCTA: -0.129
CACGAGTA: -0.00178
GGACGGTA: 0.257
AGAGTGTA: -0.185
GCTGGCAA: -0.0885
CGATCAAC: -0.0733
GAATGAGA: -0.0598
ACTATTAT: -0.0793
GACCTTCC: 0.0397
GGATAGGA: -0.0605
ATATTCCG: 0.0154
ATCGGATC: 0.0668
ATTGCAGA: -0.212
ATCGATCC: -0.011
CAATCACG: 0.171
ATTGCTCC: -0.0697
CGTCTCAG: -0.00522
GGACGTGA: -0.0616
AACACTTG: -0.236
AACTAAGT: -0.0789
AAGGTCCG: 0.207
CTATTACA: 0.00454
AATGGTGG: -0.0595

Set 7
Target: Sal-like protein 4, full length isoform A (SALL4, Homo sapiens, UniProt Q9UJQ4, residues 1-1053)
Sequence of UniProt Q9UJQ4 (whole entry, looked up): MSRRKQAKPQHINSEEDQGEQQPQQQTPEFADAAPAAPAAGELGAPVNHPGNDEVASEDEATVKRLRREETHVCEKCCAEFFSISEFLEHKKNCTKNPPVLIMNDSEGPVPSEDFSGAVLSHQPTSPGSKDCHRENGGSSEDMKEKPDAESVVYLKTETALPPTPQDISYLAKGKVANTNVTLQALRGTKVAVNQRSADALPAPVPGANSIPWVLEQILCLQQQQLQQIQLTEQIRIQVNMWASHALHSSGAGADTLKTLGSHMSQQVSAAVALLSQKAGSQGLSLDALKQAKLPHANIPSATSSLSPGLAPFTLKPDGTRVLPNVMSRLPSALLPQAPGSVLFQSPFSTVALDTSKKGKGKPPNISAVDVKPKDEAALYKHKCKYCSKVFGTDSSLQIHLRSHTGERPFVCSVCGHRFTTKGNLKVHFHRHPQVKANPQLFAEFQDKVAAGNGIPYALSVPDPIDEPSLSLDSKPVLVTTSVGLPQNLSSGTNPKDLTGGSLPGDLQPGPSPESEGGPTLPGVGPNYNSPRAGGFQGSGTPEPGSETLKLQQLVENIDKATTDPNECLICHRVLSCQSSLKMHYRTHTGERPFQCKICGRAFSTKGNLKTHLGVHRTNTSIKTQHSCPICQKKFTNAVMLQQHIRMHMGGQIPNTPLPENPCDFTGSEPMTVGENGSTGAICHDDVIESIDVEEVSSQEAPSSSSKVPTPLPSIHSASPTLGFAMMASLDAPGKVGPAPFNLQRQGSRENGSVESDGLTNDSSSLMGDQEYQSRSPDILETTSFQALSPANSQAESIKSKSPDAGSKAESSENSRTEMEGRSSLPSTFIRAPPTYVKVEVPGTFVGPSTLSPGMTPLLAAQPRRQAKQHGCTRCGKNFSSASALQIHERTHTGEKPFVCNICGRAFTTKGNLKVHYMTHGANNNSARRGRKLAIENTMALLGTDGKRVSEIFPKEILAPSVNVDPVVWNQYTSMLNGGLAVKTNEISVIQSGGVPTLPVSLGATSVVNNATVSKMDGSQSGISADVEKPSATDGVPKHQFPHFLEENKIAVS
Method: universal PBM
Molecule type: double-stranded DNA, one strand shown
Sample: in vitro
Tested at: 600 nM
Setting: 8-mer, flanks averaged, mean of replicates
Reading: higher = stronger binding
Quantity: E-score
TCCTGGAA: -0.161
AGGGGACT: -0.245
TCACCTGA: -0.0437
CCCATGTC: -0.187
AGGGGTGC: -0.282
GTCGTGAA: -0.128
CAAAGAAG: 0.0441
ACAAGGTA: 0.194
AGCTAGGC: -0.209
GAACAGCC: -0.292
ACTCACGG: -0.0997
ATCAAACG: 0.136
AGTCACTG: -0.113
ACTCTTAA: 0.155
TGCAACCA: -0.126
AATGGAAA: 0.197
AAAGAATG: 0.304
CACCCCAA: -0.0698
AGACCCAA: -0.124
TCCAGGAA: -0.0116
GGCAAAAC: 0.14
TTAGCGAA: 0.0596
AGGATTGC: -0.133
AGCTAAAG: 0.121
CGCCCATC: -0.216

Single results of other studies
PhoQ, residues 284 288 289 292 302 303 NSMLDC  fold induction (PhoP, residues 12 14 15 18 19 VHSCL (Escherichia coli, UniProt P23836); Sort-seq, item: YFP reporter; E. coli; PhoQ-PhoP variant library, added: 10 µM Mg2+; reference: high Mg2+ state, higher = stronger signaling): 8.05

For quick reference, copied from above (set 4):
S8A: -0.17
D10A: 0.272
S12A: 0.449
G5A: -0.0527
V3A: -0.0838
L2A: 0.141
F9A: -0.147
